Results from different studies.
Every numbered part comes from another study and shows a few of its results, in no order. Values joined by “and” are separate records of one study, mostly repeats; a detail may differ. Substitutions count along the parent as printed.

Set 1 — target: CCNB1, cyclin fold, Cln2 fusion (human); method: yeast growth competition, sequencing; matrix: yeast; setting: strong parent motif; reference: not given; reading: higher = stronger binding; parent: viral docking peptide; YKVKRRLVFGADD
| Substitution | normalised enrichment score |
| --- | --- |
| YKVKRRLVFGACD [D12C] | 2.67 |
| YKVCRRLVFGADD [K4C] | 4.37 |
| YKVKRPLVFGADD [R6P] | 0.482 |
| YKVKRRLVFLADD [G10L] | 2.82 |
| AKVKRRLVFGADD [Y1A] | 2.7 |
| YWVKRRLVFGADD [K2W] | 2.26 |
| YKVKRRLVRGADD [F9R] | 0.044 |
| YKVKRRLVFGAYD [D12Y] | 2.1 |

Set 2 — target: tungstate, free oxyanion; method: microfluidic competitive inhibition; matrix: in vitro, cell-free expressed; concentration: not given; reading: lower = stronger binding
Setting: derived from inhibition constants, unchanged parent 2230 nM
Parent: PafA, mature enzyme, eGFP fusion (Elizabethkingia meningoseptica, UniProt Q9KJX5); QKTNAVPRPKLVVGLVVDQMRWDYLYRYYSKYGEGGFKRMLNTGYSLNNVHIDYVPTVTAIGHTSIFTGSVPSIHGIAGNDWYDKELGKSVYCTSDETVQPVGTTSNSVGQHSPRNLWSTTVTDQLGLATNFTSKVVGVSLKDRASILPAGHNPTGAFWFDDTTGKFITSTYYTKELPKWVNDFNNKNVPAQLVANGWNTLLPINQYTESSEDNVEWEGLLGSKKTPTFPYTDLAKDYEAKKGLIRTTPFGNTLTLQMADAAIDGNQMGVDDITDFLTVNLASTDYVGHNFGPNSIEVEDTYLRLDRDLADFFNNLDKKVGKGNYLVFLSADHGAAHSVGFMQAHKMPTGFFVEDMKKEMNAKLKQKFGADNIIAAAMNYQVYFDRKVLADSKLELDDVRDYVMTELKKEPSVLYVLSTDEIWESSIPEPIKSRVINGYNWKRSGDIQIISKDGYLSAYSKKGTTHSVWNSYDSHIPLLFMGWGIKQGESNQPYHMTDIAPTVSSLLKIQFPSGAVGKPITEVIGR
| Substitution | oxyanion analog dissociation constant [µM] |
| --- | --- |
| V55A | 2.4 |
| L407V | 2.28 |
| V50A | 1.94 |
| A377V | 1.9 |
| K442G | 2.4 |
| P9V | 2.02 |
| G35V | 2.69 |
| L148G | 0.566 |

Set 3 — observed: binding; method: phage display NGS; molecule type: peptide; concentration: concentration not given; setting: panning round 2; reference: input library
Target: UDP-N-acetylglucosamine--peptide N-acetylglucosaminyltransferase 110 kDa subunit (OGT, Homo sapiens, UniProt O15294)
Sequence of UniProt O15294 (whole entry, looked up): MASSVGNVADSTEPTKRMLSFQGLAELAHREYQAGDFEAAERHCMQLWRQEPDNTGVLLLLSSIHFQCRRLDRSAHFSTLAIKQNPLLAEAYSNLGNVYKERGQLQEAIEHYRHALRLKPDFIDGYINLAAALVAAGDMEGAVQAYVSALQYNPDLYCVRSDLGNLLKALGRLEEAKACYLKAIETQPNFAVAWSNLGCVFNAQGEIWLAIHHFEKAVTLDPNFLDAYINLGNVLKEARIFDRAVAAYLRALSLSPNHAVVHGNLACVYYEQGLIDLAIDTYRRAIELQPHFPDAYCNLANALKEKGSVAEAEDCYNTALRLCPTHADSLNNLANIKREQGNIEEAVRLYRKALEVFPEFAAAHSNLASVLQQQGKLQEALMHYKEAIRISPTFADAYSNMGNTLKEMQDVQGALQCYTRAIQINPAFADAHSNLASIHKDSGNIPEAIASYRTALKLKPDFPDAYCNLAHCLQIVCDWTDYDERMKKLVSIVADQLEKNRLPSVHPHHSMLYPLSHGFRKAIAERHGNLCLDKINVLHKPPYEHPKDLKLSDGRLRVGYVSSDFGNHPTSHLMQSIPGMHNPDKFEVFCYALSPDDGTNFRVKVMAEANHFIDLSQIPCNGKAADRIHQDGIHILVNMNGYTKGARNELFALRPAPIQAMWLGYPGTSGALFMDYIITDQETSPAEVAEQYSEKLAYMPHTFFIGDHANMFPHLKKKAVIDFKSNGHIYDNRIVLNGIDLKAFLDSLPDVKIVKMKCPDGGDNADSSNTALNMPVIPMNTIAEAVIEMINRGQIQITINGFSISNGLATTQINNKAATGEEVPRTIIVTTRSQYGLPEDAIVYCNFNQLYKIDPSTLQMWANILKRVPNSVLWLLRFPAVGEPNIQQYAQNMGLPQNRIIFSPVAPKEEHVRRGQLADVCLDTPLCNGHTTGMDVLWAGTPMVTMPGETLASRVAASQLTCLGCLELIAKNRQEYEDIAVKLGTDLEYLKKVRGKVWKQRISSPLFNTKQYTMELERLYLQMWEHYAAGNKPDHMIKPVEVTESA
| Molecule | enrichment fold change |
| --- | --- |
| TIYLPKYQIFTAIT | 31.7 |
| DLTHEHQIHHHYNRD | 5.05 |
| AFSPQYQIFVGQTYM | 4.12 |
| EEVPSQYAPYYEITY | 3.27 |
| HPQMHPFRGQQHHVY | 5.07 |
| SYRPMYQIVQPIKQY | 3.55 |
| HWTSHYQHMPVHGDH | 7.06 |
| QFLPSYQIQVDLPHY | 7.06 |

Mixed results
| SMILES | organism | test | system | conditions | measurement | result |
| --- | --- | --- | --- | --- | --- | --- |
| CNC(=O)c1ccc(-c2cnn3ccc(C(=O)N(C)c4ccc(Cl)c(C(=O)OC)c4)cc23)cc1 | Cryptosporidium parvum | qPCR | IFN-γ knockout mouse, faeces | 1 mg/kg, day 1 post treatment | faecal oocyst shedding | 6.68 log oocysts/g faeces and 6.29 log oocysts/g faeces and 6.42 log oocysts/g faeces |

For quick reference, copied from above (set 1):
| Substitution | normalised enrichment score |
| --- | --- |
| YKVKRRLVFGACD [D12C] | 2.67 |
| YKVCRRLVFGADD [K4C] | 4.37 |
| YKVKRPLVFGADD [R6P] | 0.482 |
| YKVKRRLVFLADD [G10L] | 2.82 |
